Measurements of several laboratories.

`CO[C@H]1CC[C@H](N2C(=O)CNc3ncc(-c4ccc(C(C)(C)O)nc4)nc32)CC1` gave an AUC(0-24) of 379 ng·h/mL (human, plasma; oral, 15 mg, day -1, geometric mean).
`Cc1ccc([C@@H]2O[C@H](CO)[C@@H](O)[C@H](O)[C@H]2O)cc1Cc1ccc(-c2ccc(F)cc2)s1` gave an AUC(0-24) of 8270 ng·h/mL (human, maintenance hemodialysis patients; oral, 100 mg once daily, day 8, steady state, mean).
`N#Cc1ccc2c(c1)[C@H]1CCCN(C(=O)c3ccc4[nH]cnc4c3)[C@H]1C2` has an AUC(0-24) of 141 µM·h (human, plasma; oral, 240 mg once daily, after first dose).
`C[C@@H]1CCO[C@H]2Cn3cc(C(=O)NCc4ccc(F)cc4F)c(=O)c(O)c3C(=O)N12` has an AUC(0-24) of 27900 ng·h/mL (human paediatric patients, weight sample E to under sample F kg, plasma; oral, 25 mg film-coated tablet, steady state, geometric mean, population PK post-hoc, N 1).
With `CC(C)[C@H](N)C(=O)NCCCS(=O)(=O)O` the AUC(0-24) was 7870 ng·h/mL (human both sexes, plasma; oral, 256.5 mg once daily days 8-14, day 14, fasted capsule).
The AUC(0-24) of `COc1cc(C(=O)NC2CCN(C)CC2)c(F)cc1Nc1ncc(C(F)(F)F)c(Oc2cccc3c2C(=O)N(C)C3)n1` is reported as 51.2 µM·h (human patients; oral, 300 mg, cycle 1 day 1, geometric mean).
For `Cc1nc(-c2ccc(OCC(C)C)c(C#N)c2)sc1C(=O)O`, the AUC(0-24) was 1260 ng·h/mL (human, plasma; oral, 10 mg once daily, added: verinurad 2.5 mg).
`CC(=O)O.NC(=O)c1cnc(N[C@@H]2CCCC[C@@H]2N)nc1Nc1cccc(-n2nccn2)c1` gave an AUC(0-24) of 1330 ng·h/mL (human, plasma; oral, 66 mg once daily).
The AUC(0-24) of `CC(C)(Sc1ccncc1-c1ccc(C#N)c2ccccc12)C(=O)O` is reported as 103 ng·h/mL (human, plasma; oral, 5 mg once daily, added: febuxostat 0 mg).
With `Cc1cc(Nc2cc3ncccc3c(N[C@@H]3C[C@H]4CC[C@@H](C3)N4CCC#N)n2)n[nH]1` the AUC(0-24) was 3.01 ng·h/mL (human; 30 mg, day 1).
